Measured values gathered from unrelated publications.
Parts stem from different laboratories: compare values within a part only. Values joined by “and” are separate records of one study, mostly repeats; a detail may differ.
Chain of UniProt O14936 (whole entry, looked up): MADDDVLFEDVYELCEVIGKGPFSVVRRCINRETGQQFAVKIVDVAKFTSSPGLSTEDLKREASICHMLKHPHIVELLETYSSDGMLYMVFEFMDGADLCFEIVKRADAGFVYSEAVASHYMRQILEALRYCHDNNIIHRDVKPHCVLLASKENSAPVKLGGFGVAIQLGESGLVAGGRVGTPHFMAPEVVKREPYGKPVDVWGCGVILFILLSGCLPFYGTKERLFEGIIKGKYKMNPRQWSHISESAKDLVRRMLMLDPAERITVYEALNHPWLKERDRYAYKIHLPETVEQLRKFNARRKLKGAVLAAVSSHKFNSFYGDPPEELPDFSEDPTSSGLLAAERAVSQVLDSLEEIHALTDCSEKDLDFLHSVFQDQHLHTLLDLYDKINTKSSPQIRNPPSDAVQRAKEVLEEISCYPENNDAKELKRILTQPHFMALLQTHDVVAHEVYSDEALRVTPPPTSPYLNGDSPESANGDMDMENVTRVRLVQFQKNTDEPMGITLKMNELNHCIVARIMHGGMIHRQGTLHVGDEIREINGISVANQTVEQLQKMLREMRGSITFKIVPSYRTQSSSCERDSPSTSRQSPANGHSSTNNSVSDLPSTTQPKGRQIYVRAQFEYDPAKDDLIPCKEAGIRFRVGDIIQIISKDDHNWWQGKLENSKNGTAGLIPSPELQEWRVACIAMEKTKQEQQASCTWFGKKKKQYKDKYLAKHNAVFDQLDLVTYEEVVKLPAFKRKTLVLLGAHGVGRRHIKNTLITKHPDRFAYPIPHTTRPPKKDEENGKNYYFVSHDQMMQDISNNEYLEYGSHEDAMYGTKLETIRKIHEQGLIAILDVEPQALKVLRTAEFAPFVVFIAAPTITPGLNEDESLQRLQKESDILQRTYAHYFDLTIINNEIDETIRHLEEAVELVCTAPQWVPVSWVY
Chain of UniProt Q8N568 (whole entry, looked up): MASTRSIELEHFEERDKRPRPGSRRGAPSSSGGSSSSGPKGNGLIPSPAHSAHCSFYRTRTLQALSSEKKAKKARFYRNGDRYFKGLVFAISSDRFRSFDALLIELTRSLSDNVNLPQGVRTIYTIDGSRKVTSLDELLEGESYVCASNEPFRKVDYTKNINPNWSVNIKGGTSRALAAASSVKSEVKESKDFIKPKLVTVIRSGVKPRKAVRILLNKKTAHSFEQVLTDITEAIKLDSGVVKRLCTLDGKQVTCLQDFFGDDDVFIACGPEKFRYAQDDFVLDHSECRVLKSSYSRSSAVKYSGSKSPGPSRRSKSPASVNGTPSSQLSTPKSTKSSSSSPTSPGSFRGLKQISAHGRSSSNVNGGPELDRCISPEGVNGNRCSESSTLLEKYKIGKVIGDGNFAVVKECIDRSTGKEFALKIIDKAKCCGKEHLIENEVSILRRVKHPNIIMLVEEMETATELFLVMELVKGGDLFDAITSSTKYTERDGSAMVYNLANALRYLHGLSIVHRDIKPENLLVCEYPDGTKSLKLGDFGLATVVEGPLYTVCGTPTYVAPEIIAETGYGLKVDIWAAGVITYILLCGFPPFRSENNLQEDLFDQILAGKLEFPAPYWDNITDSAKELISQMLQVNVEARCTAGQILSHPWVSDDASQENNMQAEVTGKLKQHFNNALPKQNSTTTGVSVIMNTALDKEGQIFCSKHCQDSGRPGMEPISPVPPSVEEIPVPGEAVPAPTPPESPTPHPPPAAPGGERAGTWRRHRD
Chain of UniProt Q15418 (whole entry, looked up): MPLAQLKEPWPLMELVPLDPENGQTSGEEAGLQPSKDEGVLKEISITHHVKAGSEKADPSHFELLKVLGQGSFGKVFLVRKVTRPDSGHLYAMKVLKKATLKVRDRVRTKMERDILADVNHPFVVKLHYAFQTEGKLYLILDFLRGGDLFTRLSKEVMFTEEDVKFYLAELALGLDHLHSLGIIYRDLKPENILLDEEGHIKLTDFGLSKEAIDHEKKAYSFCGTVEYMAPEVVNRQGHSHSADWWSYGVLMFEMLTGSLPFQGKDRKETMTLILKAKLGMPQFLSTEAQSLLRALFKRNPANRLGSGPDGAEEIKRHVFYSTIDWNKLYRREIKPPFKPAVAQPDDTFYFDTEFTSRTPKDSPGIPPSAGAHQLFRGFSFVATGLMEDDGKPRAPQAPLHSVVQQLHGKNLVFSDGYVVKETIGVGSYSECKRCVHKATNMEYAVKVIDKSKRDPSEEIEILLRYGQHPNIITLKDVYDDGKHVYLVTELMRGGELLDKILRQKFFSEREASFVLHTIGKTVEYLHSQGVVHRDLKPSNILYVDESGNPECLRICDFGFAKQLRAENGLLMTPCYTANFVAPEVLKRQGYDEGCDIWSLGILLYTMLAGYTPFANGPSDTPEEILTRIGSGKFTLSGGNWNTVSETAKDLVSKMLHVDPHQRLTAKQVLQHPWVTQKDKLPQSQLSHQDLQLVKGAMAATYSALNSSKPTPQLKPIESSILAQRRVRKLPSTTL
Chain of UniProt Q96SB4 (whole entry, looked up): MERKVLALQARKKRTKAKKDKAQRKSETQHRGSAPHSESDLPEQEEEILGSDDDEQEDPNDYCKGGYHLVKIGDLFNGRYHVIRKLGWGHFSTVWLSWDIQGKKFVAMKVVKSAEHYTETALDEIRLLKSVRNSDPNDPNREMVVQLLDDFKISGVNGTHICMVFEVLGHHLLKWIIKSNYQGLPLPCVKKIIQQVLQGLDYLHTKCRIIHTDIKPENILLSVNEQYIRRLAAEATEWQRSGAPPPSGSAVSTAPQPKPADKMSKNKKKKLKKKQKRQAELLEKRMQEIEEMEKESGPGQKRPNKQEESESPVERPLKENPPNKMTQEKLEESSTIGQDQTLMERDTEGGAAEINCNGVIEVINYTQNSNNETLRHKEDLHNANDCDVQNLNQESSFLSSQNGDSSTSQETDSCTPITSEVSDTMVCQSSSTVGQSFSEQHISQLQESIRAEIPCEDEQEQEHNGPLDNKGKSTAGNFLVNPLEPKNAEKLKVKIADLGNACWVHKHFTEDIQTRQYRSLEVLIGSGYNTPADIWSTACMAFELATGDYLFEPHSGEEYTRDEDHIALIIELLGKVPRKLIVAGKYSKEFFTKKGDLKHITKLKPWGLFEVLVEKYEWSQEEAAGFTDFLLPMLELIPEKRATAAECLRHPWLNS
Chain of UniProt Q9Y5S2 (whole entry, looked up): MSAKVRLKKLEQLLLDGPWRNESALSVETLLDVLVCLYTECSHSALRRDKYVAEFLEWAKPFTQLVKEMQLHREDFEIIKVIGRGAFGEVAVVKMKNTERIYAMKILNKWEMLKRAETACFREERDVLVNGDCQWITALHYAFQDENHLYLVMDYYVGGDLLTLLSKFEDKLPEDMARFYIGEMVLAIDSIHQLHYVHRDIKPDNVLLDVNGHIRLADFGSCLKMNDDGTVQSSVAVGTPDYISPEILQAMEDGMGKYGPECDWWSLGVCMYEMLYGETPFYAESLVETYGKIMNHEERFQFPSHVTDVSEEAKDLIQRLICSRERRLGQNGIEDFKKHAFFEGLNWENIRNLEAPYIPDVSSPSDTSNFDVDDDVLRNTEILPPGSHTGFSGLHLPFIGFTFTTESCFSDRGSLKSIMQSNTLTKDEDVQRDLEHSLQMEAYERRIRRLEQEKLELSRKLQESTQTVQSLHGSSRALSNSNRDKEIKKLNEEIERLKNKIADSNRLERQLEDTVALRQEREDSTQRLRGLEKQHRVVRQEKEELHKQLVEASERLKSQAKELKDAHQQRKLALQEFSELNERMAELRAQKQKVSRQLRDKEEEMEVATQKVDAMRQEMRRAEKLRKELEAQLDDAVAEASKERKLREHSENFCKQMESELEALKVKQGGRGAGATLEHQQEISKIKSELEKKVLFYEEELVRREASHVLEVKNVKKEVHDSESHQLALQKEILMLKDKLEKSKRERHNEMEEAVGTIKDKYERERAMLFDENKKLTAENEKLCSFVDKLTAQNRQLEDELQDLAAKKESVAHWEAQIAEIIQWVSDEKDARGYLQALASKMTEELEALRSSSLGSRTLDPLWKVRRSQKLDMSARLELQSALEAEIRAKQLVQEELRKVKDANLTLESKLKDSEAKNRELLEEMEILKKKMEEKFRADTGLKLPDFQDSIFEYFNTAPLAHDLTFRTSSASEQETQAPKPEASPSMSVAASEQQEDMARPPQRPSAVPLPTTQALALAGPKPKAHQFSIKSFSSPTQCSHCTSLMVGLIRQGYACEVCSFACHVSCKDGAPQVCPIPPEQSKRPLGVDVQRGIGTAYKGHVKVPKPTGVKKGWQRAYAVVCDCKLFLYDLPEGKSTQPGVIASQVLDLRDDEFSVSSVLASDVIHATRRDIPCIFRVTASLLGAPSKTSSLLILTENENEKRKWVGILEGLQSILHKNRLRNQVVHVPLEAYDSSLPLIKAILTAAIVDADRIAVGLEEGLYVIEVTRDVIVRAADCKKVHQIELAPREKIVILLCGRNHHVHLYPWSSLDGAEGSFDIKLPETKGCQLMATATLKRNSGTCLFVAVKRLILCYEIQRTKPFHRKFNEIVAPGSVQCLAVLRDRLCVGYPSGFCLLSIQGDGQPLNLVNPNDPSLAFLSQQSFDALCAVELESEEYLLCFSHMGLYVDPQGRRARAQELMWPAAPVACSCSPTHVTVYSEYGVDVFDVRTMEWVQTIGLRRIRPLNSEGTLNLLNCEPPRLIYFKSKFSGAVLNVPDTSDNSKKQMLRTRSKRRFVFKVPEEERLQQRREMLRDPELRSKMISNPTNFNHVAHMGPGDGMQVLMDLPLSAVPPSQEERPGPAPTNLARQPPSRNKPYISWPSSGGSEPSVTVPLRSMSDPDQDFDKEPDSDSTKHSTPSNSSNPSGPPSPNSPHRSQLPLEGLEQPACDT

Series 1 — observed: cell-free assay; method: competition with immobilised ligand; tested at: 0.1 µM
Structure (SMILES): CS(=O)(=O)N1CCCC(NC(=O)[C@H](CCC2CCCCC2)NC(=O)c2ccc(CNc3ncnc4c3nnn4-c3ccccc3)cc2)C1 (stereo partly shown)
It gave 78% for remaining binding (SRPK1 (Homo sapiens, UniProt Q96SB4)).
HIPK1 (Homo sapiens, UniProt Q86Z02) — remaining binding: 100%.
PIP5K1A (Homo sapiens, UniProt Q99755) — remaining binding: 100%.
It gave 96% for remaining binding (EPHA5 (Homo sapiens, UniProt P54756)).
For DCLK2 (Homo sapiens, UniProt Q8N568): remaining binding read 95%.
It gave 100% for remaining binding (LATS2 (Homo sapiens, UniProt Q9NRM7)).
NTRK2 (Homo sapiens, UniProt Q16620) — remaining binding: 100%.
The remaining binding was 100% (GSK3B (Homo sapiens, UniProt P49841)).
TIE1 (Homo sapiens, UniProt P35590) — remaining binding: 100%.
The remaining binding was 60% (NIM1K (Homo sapiens, UniProt Q8IY84)).
For CDC42BPB (Homo sapiens, UniProt Q9Y5S2): remaining binding read 90%.
For CHEK1 (Homo sapiens, UniProt O14757): remaining binding read 100%.
NUAK2 (Homo sapiens, UniProt Q9H093) — remaining binding: 100%.
It gave 100% for remaining binding (KIT (Homo sapiens, UniProt P10721, V559D/V654A)).
FLT3 (Homo sapiens, UniProt P36888, N841I) — remaining binding: 99%.

Series 2 — host: mouse, EL4 tumour-bearing; medium: EL4 tumour; dose: dose not given; reference: vehicle
SMILES: CC(=O)N[C@@H](Cc1c[nH]c2ccccc12)C(=O)N[C@@H](CCC(=O)C=[N+]=[N-])C(=O)OC(C)C
The “log2 fold change” was -0.413 (refers to: ribonate).
It gave 0.386 for “log2 fold change” (refers to: methylphosphate).
The “log2 fold change” was 0.57 (refers to: glutamine).
refers to: triethanolamine — “log2 fold change”: 0.231.
refers to: gamma-glutamylphenylalanine — “log2 fold change”: -0.256.
refers to: threonine — “log2 fold change”: 0.323.
The “log2 fold change” was -0.0154 (refers to: sarcosine).
refers to: proline — “log2 fold change”: -0.195.
refers to: erythronate* — “log2 fold change”: -0.138.
refers to: hippurate — “log2 fold change”: 1.06.

Series 3 — observed: binding; tested at: 1 µM
Structure (SMILES): COc1ccc2[nH]c3c4[nH]c5ccc(OC)cc5c4c4c(c3c2c1)C(=O)NC4=O
It gave 87% for remaining binding (CDK8 (Homo sapiens, UniProt P49336); competition with immobilised ligand).
Ribosomal protein S6 kinase alpha-1, N-terminal kinase domain (RPS6KA1, Homo sapiens, UniProt Q15418); competition with immobilised ligand — remaining binding: 49%.
For FLT3 (Homo sapiens, UniProt P36888, N841I): remaining binding read 0%.
For MAP2K6 (Homo sapiens, UniProt P52564): remaining binding read 97%.
The remaining binding was 100% (GSK3A (Homo sapiens, UniProt P49840)).
For CASK (Homo sapiens, UniProt O14936): remaining binding read 100%.

Series 4 — cell line: HEK293T ATF4-firefly luciferase reporter; observed: integrated stress response; refers to: ATF4; reference: DMSO
Compound: Ic1ccc(Nc2nc(NCCN3CCOCC3)nc(N3CCOCC3)n2)cc1
For 1 µM, with: ISRIB: reporter signal read 85.1% and 68.9% and 61.6% and 70.3% and 91.7% and 88.4% and 70.1% and 81.2%.
10 µM, with: ISRIB — reporter signal: 94.2% and 117% and 88.1% and 91.6% and 106% and 93% and 81.8% and 126%.
10 µM, without ISRIB — reporter signal: 176% and 148% and 144% and 166% and 137% and 136% and 161%.
